Results gathered from unrelated publications.
A part holds a random share of what one study measured.
UniProt O15111, sequence (whole entry, looked up): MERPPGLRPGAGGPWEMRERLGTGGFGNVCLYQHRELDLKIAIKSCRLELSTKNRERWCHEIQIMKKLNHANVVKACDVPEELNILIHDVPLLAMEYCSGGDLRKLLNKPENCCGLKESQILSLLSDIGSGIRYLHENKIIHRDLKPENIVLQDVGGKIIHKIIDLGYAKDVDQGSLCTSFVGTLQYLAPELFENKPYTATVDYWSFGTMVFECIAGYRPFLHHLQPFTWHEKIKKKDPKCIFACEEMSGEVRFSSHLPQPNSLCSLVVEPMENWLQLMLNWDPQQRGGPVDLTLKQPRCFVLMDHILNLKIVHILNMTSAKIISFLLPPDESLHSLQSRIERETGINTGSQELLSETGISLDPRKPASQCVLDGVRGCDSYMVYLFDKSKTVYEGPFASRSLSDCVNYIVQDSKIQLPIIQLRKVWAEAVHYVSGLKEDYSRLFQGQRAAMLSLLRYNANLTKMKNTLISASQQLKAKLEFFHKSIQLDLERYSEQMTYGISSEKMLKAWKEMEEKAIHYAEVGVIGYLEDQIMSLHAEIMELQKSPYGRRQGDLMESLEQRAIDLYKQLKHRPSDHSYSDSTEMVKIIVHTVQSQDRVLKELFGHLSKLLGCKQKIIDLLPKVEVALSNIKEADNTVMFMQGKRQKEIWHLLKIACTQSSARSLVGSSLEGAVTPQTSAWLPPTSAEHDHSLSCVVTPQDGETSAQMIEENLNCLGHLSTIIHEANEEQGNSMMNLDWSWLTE
UniProt P22455, sequence (whole entry, looked up): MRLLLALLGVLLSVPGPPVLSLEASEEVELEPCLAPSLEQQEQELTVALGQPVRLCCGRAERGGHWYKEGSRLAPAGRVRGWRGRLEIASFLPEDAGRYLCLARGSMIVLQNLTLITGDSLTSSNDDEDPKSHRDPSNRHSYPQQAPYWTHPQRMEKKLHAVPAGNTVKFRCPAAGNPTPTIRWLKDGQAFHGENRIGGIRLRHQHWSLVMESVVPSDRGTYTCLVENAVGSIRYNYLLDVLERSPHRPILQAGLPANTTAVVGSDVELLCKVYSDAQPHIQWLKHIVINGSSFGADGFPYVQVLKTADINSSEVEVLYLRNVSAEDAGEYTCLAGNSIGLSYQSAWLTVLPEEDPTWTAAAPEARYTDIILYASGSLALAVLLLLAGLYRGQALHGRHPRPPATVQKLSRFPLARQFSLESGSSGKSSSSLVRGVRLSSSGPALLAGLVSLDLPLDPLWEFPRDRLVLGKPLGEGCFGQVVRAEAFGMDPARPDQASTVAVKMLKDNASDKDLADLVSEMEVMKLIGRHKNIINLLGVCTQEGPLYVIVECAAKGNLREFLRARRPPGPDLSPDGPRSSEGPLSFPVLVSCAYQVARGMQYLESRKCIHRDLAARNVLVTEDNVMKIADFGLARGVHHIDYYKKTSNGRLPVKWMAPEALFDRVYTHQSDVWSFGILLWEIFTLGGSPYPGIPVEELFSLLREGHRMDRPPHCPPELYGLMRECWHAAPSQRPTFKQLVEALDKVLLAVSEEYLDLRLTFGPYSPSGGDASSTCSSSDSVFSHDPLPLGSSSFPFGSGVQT
UniProt Q9P289, sequence (whole entry, looked up): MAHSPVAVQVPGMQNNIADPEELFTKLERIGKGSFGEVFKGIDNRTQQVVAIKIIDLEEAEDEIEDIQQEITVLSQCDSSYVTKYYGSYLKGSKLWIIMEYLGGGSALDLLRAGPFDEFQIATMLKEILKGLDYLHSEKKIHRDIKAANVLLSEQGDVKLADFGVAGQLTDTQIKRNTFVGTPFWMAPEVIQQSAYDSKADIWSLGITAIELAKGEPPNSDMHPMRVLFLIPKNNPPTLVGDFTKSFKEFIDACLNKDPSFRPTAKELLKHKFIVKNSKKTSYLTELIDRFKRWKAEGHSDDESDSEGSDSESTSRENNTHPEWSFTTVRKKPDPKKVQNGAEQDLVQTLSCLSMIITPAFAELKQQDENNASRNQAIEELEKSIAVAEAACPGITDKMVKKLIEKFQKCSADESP

Sample 1
Target: Cyclin-dependent kinase 12, with cyclin K (CDK12, Homo sapiens, UniProt Q9NYV4)
UniProt Q9NYV4, sequence (whole entry, looked up): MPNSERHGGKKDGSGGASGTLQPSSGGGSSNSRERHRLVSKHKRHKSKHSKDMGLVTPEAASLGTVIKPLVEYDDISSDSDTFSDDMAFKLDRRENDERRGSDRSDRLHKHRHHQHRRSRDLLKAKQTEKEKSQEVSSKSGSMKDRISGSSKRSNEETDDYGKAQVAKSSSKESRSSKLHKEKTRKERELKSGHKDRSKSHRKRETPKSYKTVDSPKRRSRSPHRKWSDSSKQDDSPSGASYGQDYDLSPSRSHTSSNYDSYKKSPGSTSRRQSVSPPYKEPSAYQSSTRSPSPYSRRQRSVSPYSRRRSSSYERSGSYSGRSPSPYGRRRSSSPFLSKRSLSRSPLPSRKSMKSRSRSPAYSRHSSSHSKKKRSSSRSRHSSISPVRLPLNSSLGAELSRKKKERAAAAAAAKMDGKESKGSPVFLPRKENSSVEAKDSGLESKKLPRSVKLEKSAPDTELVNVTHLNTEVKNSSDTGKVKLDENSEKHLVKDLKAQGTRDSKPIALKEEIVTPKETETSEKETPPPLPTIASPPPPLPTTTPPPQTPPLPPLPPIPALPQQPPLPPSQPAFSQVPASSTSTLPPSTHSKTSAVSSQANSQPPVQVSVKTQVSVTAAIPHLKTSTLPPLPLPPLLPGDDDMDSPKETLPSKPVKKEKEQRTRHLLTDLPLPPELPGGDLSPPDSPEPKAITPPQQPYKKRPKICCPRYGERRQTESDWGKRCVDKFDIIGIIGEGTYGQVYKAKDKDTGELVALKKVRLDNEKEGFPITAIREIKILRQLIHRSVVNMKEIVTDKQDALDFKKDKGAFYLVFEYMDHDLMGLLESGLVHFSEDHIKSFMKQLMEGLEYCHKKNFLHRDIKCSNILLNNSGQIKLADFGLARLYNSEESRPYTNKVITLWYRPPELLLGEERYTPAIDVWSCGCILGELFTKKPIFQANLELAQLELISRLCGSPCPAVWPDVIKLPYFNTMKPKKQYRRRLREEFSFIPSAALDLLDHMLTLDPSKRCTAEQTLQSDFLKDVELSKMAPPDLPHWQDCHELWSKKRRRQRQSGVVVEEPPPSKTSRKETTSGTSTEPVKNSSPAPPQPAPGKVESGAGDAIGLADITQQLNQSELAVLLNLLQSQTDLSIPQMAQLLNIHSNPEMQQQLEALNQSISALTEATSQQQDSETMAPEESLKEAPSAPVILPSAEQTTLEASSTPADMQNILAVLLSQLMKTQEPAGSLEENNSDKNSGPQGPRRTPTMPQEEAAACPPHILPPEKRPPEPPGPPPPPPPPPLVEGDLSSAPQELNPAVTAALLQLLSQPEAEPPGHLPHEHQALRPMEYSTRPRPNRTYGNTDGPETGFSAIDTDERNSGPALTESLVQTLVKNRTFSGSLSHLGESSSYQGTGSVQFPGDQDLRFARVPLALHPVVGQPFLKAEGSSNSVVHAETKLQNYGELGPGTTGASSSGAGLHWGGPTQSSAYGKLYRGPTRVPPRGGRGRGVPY
Observed: kinase activity
Action: inhibitor
Technique: ADP-Glo
Concentration: 0.0027 µM
`CCn1cnc2c(NCc3nc4ccc(F)c(F)c4[nH]3)nc(N3CCn4ncnc4C3)nc21` gave an inhibition of 8%.
For `CCn1cnc2c(NCc3nc4cc(Cl)c(Cl)cc4[nH]3)nc(N3CCN(C(=O)c4ccccc4)CC3)nc21`, the inhibition was -7.2%.
For `CCn1cnc2c(NCc3nc4cc(Cl)c(Cl)cc4[nH]3)nc(N3CCN(Cc4ccncc4)CC3)nc21`, the inhibition was -12.8%.
With `CCn1cnc2c(NCc3nc4cc(Cl)c(Cl)cc4[nH]3)nc(N3CCN(C(=O)CNC(C)=O)CC3)nc21` the inhibition was -1.8%.
The inhibition of `CCn1cnc2c(NCc3nc4cc(Cl)c(Cl)cc4[nH]3)nc(N3CCN(C(=O)c4ccncc4)CC3)nc21` is reported as 2.6%.
For `CCn1cnc2c(NCc3nc4cc(Cl)c(Cl)cc4[nH]3)nc(N3CCN(C(=O)[C@H](C)NC(C)=O)CC3)nc21`, the inhibition was -16.1%.
For `CC(=O)N1CCN(c2nc(NCc3nc4cc(Cl)c(Cl)cc4[nH]3)c3ncn(C)c3n2)CC1`, the inhibition was -5.6%.
For `CC(=O)N1CCN(c2nc(NCc3nc4cc(Cl)c(Cl)cc4[nH]3)c3ncn(-c4cnn(C)c4)c3n2)CC1`, the inhibition was -6%.
`CCn1cnc2c(NCc3nc4cc(Cl)c(Cl)cc4[nH]3)nc(N3CCn4ncnc4C3)nc21` has an inhibition of 15.5%.
`CCn1cnc2c(NCc3nc4cc(Cl)c(Cl)cc4[nH]3)nc(N3CCN(c4ccccn4)CC3)nc21` has an inhibition of 3.7%.

Sample 2
Compound: O=C(Nc1ccccc1)c1cccc(Oc2ccc3nccn3n2)c1
Observed: cell-free assay
Technique: competition with immobilised ligand
Concentration: 1 µM
The remaining binding was 21% (Vascular endothelial growth factor receptor 1 (FLT1, Homo sapiens, UniProt P17948)).
For Epithelial discoidin domain-containing receptor 1 (DDR1, Homo sapiens, UniProt Q08345): remaining binding read 55%.
It gave 58% for remaining binding (Discoidin domain-containing receptor 2 (DDR2, Homo sapiens, UniProt Q16832)).

Sample 3
SMILES: C[C@@H]1CN(c2ccc(-c3cc(C(=O)NCCOCCOCCOCCOCCNC(=O)/C=C/c4[nH]cc(C(=O)N[C@@H](CC(N)=O)c5ccc(F)c(Cl)c5)c4-c4ccc(Cl)cc4F)ccc3F)cc2NC(=O)c2c[nH]c(=O)cc2C(F)(F)F)C[C@H](C)N1C
Observed: thermal unfolding
Technique: differential scanning fluorimetry
Concentration: 5.5 µM
Reading: higher = more unfolded
DCAF1: DDB1- and CUL4-associated factor 1 (DCAF1, Homo sapiens, UniProt Q9Y4B6)
UniProt Q9Y4B6, sequence (whole entry, looked up): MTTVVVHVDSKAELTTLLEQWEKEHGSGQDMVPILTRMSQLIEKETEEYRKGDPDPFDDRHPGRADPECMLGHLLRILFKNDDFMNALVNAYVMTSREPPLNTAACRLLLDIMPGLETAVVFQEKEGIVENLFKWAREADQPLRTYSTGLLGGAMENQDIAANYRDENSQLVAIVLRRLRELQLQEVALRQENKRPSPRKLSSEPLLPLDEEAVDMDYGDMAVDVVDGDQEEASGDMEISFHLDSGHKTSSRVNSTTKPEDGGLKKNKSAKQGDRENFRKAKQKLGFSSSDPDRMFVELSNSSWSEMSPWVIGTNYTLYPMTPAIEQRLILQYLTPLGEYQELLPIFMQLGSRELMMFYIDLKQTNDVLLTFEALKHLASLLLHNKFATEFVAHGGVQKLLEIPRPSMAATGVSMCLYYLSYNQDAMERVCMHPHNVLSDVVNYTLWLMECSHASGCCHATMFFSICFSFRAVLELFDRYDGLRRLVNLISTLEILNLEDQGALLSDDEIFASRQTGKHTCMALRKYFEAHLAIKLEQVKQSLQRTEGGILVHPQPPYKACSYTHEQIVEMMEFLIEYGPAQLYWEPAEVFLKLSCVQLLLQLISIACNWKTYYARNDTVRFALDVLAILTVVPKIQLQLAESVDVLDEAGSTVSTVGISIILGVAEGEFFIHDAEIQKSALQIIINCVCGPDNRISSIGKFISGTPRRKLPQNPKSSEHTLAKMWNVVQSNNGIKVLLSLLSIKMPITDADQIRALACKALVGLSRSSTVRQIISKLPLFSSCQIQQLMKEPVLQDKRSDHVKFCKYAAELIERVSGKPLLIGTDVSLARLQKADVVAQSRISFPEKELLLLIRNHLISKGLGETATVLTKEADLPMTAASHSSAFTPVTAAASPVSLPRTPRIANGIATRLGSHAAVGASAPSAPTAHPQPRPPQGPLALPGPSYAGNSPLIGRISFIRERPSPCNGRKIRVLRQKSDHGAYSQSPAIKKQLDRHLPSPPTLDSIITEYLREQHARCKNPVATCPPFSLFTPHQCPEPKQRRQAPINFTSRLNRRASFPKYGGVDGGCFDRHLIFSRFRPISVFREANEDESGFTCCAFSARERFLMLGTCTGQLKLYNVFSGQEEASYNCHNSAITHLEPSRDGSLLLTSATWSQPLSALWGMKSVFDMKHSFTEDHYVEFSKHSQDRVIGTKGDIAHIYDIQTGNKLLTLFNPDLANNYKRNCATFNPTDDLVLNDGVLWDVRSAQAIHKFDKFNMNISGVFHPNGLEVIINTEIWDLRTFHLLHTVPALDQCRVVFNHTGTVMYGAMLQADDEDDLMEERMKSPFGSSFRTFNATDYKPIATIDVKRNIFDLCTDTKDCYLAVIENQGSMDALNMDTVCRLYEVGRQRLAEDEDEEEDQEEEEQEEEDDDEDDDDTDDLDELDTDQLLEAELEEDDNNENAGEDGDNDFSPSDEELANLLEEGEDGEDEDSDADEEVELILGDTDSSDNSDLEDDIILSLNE
WDR5: WD repeat-containing protein 5 (WDR5, Homo sapiens, UniProt P61964)
For DCAF1; 79.81 °C: “SYPRO Orange fluorescence” read 45500 a.u.
For WDR5; 84.01 °C: “SYPRO Orange fluorescence” read 50600 a.u.
DCAF1; 90.41 °C — “SYPRO Orange fluorescence”: 34600 a.u.
DCAF1; 83.41 °C — “SYPRO Orange fluorescence”: 41900 a.u.
It gave 28300 a.u. for “SYPRO Orange fluorescence” (WDR5; 76.01 °C).
The “SYPRO Orange fluorescence” was 12900 a.u. (WDR5; 28.2 °C).
DCAF1; 74.41 °C — “SYPRO Orange fluorescence”: 50700 a.u.
WDR5; 39 °C — “SYPRO Orange fluorescence”: 14100 a.u.
For DCAF1; 87.21 °C: “SYPRO Orange fluorescence” read 37700 a.u.
DCAF1; 73.21 °C — “SYPRO Orange fluorescence”: 52000 a.u.
WDR5; 87.61 °C — “SYPRO Orange fluorescence”: 53500 a.u.

Sample 4
SMILES: CN(C1COC1)C(C)(C)/C=C(\C#N)C(=O)N1CCC[C@H]1Cn1nc(-c2ccc(Oc3ccccc3)cc2F)c2c(N)ncnc21
Observed: kinase activity
The inhibition was 1% (Leucine-rich repeat serine/threonine-protein kinase 2 (LRRK2, Homo sapiens, UniProt Q5S007, G2019S); 1 µM).
The inhibition was 4% (Serine/threonine-protein kinase Sgk1 (SGK1, Homo sapiens, UniProt O00141); 1 µM).
The inhibition was 9% (Calcium/calmodulin-dependent protein kinase type IV (CAMK4, Homo sapiens, UniProt Q16566); 1 µM).
Inhibitor of nuclear factor kappa-B kinase subunit alpha (CHUK, Homo sapiens, UniProt O15111); 1 µM — inhibition: -2%.
Serine/threonine-protein kinase 26 (STK26, Homo sapiens, UniProt Q9P289); 1 µM — inhibition: 5%.
The inhibition was 9% (Vascular endothelial growth factor receptor 3 (FLT4, Homo sapiens, UniProt P35916); 1 µM).
The inhibition was 9% (Fibroblast growth factor receptor 4 (FGFR4, Homo sapiens, UniProt P22455); 0.1 µM).
It gave 6% for inhibition (Cyclin-dependent kinase 1 (CDK1, Homo sapiens, UniProt P06493); 1 µM).
It gave 22% for inhibition (Tyrosine-protein kinase Fes/Fps (FES, Homo sapiens, UniProt P07332); 1 µM).
Protein kinase C epsilon type (PRKCE, Homo sapiens, UniProt Q02156); 0.1 µM — inhibition: 3%.
Serine/threonine-protein kinase Chk2 (CHEK2, Homo sapiens, UniProt O96017); 1 µM — inhibition: 5%.
Platelet-derived growth factor receptor alpha (PDGFRA, Homo sapiens, UniProt P16234); 1 µM — inhibition: 11%.
The inhibition was -3% (Serine/threonine-protein kinase BRSK1 (BRSK1, Homo sapiens, UniProt Q8TDC3); 1 µM).

Some of these lines once more (sample 3):
For DCAF1; 87.21 °C: “SYPRO Orange fluorescence” read 37700 a.u.
WDR5; 87.61 °C — “SYPRO Orange fluorescence”: 53500 a.u.
It gave 28300 a.u. for “SYPRO Orange fluorescence” (WDR5; 76.01 °C).
For WDR5; 84.01 °C: “SYPRO Orange fluorescence” read 50600 a.u.
